Measured values of several laboratories.
Compare with care: the assays were run in different laboratories. Several values in a cell are separate wells, animals, samples, runs or records. ± gives the spread as reported.
NT5E membrane-bound form: 5'-nucleotidase, membrane-bound form (NT5E, Homo sapiens, UniProt P21589)
CSNK1E: Casein kinase I isoform epsilon (CSNK1E, Homo sapiens, UniProt P49674)
HTR6: 5-hydroxytryptamine receptor 6 (HTR6, Homo sapiens, UniProt P50406)
SIRT5: NAD-dependent protein deacylase sirtuin-5, mitochondrial (SIRT5, Homo sapiens, UniProt Q9NXA8)

For `Cc1cc(C(F)(F)F)c2c(N)c(C(=O)Nc3nccs3)sc2n1`, the inhibition was 9 ± 6% (NT5E membrane-bound form; CD73 activity, inhibitor, malachite green phosphate; MDA-MB-231; 100 µM, with: 200 µM AMP).
`COc1cc2c(cc1OC)CC(=O)N(CCCN(C)C[C@H]1Cc3cc(OC)c(OC)cc31)CC2` has an inhibition of 93.15 ± 0.02% (Potassium/sodium hyperpolarization-activated cyclic nucleotide-gated channel 1 (Homo sapiens, UniProt O60741); ion current, antagonist, whole-cell patch clamp; HEK293T cells; 50 µM).
`CCOC(=O)c1ccc(NC(=O)c2sc3nc(C)cc(C(F)(F)F)c3c2N)cc1` has an inhibition of 2 ± 2% (NT5E membrane-bound form; CD73 activity, inhibitor, malachite green phosphate; MDA-MB-231; 100 µM, with: 200 µM AMP).
`COc1cccc(F)c1Cn1cnc(-c2ccncc2)c1-c1ccc(F)cc1` has an inhibition of 31% (CSNK1E; inhibitor; 1 µM).
`COC(=O)c1ccc(NC(=O)c2sc3nc(C)cc(-c4ccccc4)c3c2N)cc1` has an inhibition of 25 ± 10% (NT5E membrane-bound form; CD73 activity, inhibitor, malachite green phosphate; MDA-MB-231; 100 µM, with: 200 µM AMP).
The inhibition of `CCN1CCN(Cc2ccc(NC(=O)c3ccc(C)c(/C=C/c4cnc5[nH]ccc5c4OC)c3)cc2C(F)(F)F)CC1` is reported as -0.432% (Cyclin-dependent kinase 11B (CDK11B, Homo sapiens, UniProt P21127); A-375; concentration not given).
For `CCOC(=O)c1ccc(NC(=O)CSc2nc(-c3ccccc3)cc(C(F)(F)F)c2C#N)cc1`, the inhibition was 23 ± 5% (NT5E membrane-bound form; CD73 activity, inhibitor, malachite green phosphate; MDA-MB-231; 100 µM, with: 200 µM AMP).
`Cc1cc2c(cc1N1C(=O)c3cccc4c(CCCO)ccc(c34)C1=O)n(C)c(=O)n2C` (racemic) has an inhibition of 14% (Bromodomain adjacent to zinc finger domain protein 2B (BAZ2B, Homo sapiens, UniProt Q9UIF8); binding, BROMOscan binding; 1000 nM).
`Cc1ccc(C(=O)Nc2ccc3ccccc3c2)o1` has an inhibition of 6.8% and 4.7% and 3.7% and 4% and 8.7% (Sodium channel protein type 3 subunit alpha (Scn3a, Rattus norvegicus, UniProt P08104); ion current, inhibitor, whole-cell patch clamp; 10 µM).
`O=C(C#Cc1cn(Cc2ccccc2)c(=O)[nH]c1=O)NCc1ccccc1` gave an inhibition of 32 ± 9% (Collagenase 3 (MMP13, Homo sapiens, UniProt P45452); 6.5 µM).
`Ic1cccc2cnccc12` gave an inhibition of 8% (central GABA-A receptor (rat); agonist site binding, radioligand binding; 10 µM, with: muscimol).
With `CC[C@@H]1[C@H](F)C(=O)N[C@@H]1COc1nccc2cc(C(N)=O)c(OC)cc12` the inhibition was 6.2% (Serine/threonine-protein kinase ULK1 (ULK1, Homo sapiens, UniProt O75385); ATP-site probe binding, ActivX profiling; THP-1 cell lysate; 0.2 mM, Lys1 site).
For `CCS(=O)(=O)c1nc(S(=O)(=O)c2ccccc2Cl)c(N2CCN(C)C(=O)[C@H]2C)s1`, the inhibition was 18% (HTR6; 10 µM).
`COc1ccc2c(c1)CN(CCCN1CCN(c3ccccc3OC)CC1)C2=O` has an inhibition of 6% (HTR6; radioligand binding; concentration not given, with: [3H]LSD).
The inhibition of `COc1cc2c3c(c1OC)-c1cc4c(cc1CC3N(C)CC2c1ccccc1)OCO4` (stereo not drawn) is reported as under 50% (GABAA; binding, radioligand binding; concentration not given).
`Nc1nn(-c2ccccc2)nc1C(=O)O` gave an inhibition of 5 ± 4% (Adenosine receptor A2a (ADORA2A, Homo sapiens, UniProt P29274); 30 µM).
The inhibition of `Cc1cc(C)c(C#N)c(SCC(=O)Nc2ccon2)n1` is reported as 38 ± 10% (NT5E membrane-bound form; CD73 activity, inhibitor, malachite green phosphate; MDA-MB-231; 100 µM, with: 200 µM AMP).
`O=C(NC1CCC1)[C@H](Cc1c[nH]c2ccccc12)NC(=O)[C@H](CCCCNC(=S)NCCNc1c(O)c(=O)c1=O)NS(=O)(=O)c1cccc(F)c1` has an inhibition of under 0% (SIRT5; enzyme activity, inhibitor; 100 µM).
The inhibition of `CCOc1cc(-c2nncn2C)ccc1Nc1ncc2cc(C)nc(NCC(C)(C)C)c2n1` is reported as 36% (MAPK12 (p38 beta); Z'-LYTE; 1 µM).
`CCCCNC(=S)NCCCC[C@H](NC(=O)CCC(=O)NCCOCCOCCCCCCCl)C(=O)N[C@@H](Cc1c[nH]c2ccccc12)C(=O)NC1CCC1` gave an inhibition of under 0% (SIRT5; enzyme activity, inhibitor; 100 µM).
`O=C(Nc1cccc2c(=O)cc(-c3nnn[nH]3)oc12)c1ccc(OCCCCc2ccccc2)cc1` gave an inhibition of 42.8% and 59.8% and 58.6% and 53.3% (Volume-regulated anion channel subunit LRRC8C, part LRRC8A IL1 chimera (LRRC8C, Homo sapiens, UniProt Q8TDW0, Y126F); ion current, inhibitor, whole-cell patch clamp; HCT LRRC8-/- cells; 1 µM, -100 mV).
With `O=C(NO)c1ccc(CN2CCCCc3ccccc32)c(F)c1` the inhibition was 15% (Kappa-type opioid receptor (OPRK1, Homo sapiens, UniProt P41145); radioligand binding, PDSP radioligand binding; 10 µM).
With `Cc1cccc(NC(=O)CSc2nc(-c3ccccc3)cc(C)c2C#N)n1` the inhibition was 27 ± 8% (NT5E membrane-bound form; CD73 activity, inhibitor, malachite green phosphate; MDA-MB-231; 100 µM, with: 200 µM AMP).
`COc1cccc(OC[C@@H]2CN(CCN3CCc4ccccc43)CCO2)c1` gave an inhibition of 19.4% (HTR6; radioligand binding; concentration not given, with: [3H]LSD).
`Cc1cccc(-c2nc(-c3ccc(NS(C)(=O)=O)cc3)[nH]c2-c2ccncc2)c1` has an inhibition of 40% (CSNK1E; kinase activity; 1 µM).
With `COc1cc(-c2cc(C(C)=O)n3ccccc23)cc(OC)c1Cn1ccnc1` the inhibition was 96.9% (Chromatin remodeling regulator CECR2 (CECR2, Homo sapiens, UniProt Q9BXF3); 1 µM).
With `CCN(Cc1ccccc1C(F)(F)F)C(=O)C1CCN(S(=O)(=O)c2ccc3[nH]ncc3c2)CC1` the inhibition was 8% (human nicotinic acetylcholine receptor; radioligand binding; 10 µM).
For `O=C(Cn1nc(C(F)(F)F)c2c1CCCC2)N1CCCc2ccccc21`, the inhibition was about 12% (Inward rectifier potassium channel (Aedes aegypti, UniProt L0EQ40); inward K+ current, two-electrode voltage clamp; Xenopus oocytes; 25 µM, pH 7.5, holding -140 mV, with: K+ 25 mM).
The inhibition of `NC/C(=C\F)COc1cccc(Cn2c(=S)[nH]c(=O)c3[nH]cnc32)c1` is reported as 75% (Amine oxidase copper-containing 3 (Canis lupus familiaris, UniProt A0A8I3MYY3); inhibitor; dog adipose tissue; 0.0041 µM).
The inhibition of `CC(C)c1noc2ncc(C(=O)c3ccccc3O)cc12` is reported as 3.7% and 2.7% and 0% and 4.7% (Inward rectifier potassium channel 2 (KCNJ2, Homo sapiens, UniProt P63252); ion current, inhibitor, whole-cell patch clamp; 10 µM).
`O=C1NC(=O)C2(CCCCc3ccccc32)N1` (stereo not drawn) has an inhibition of 69% (GABA-A receptor alpha-1/beta-3, with gamma-2 subunit (GABRA1/GABRB3, Homo sapiens, UniProt P14867+P28472); reversal, anesthetic-enhanced desensitization; concentration not given).
`CN1CCC[C@H]1c1cccnc1` (racemic) has an inhibition of 98.8% (neuronal nicotinic acetylcholine receptor (rat); radioligand binding; rat brain; 1×10 µM).
`COc1cc(C(=O)NS(=O)(=O)c2ccccc2C)ccc1Cc1cn(C)c2ccc(NC(=O)OC3CCCC3)cc12` gave an inhibition of 96.9% and 94.4% and 94.9% and 96.2% and 96.3% (Volume-regulated anion channel subunit LRRC8C, part LRRC8A IL1 chimera (LRRC8C, Homo sapiens, UniProt Q8TDW0, C43G); ion current, inhibitor, whole-cell patch clamp; HCT LRRC8-/- cells; 100 µM, +100 mV).
The inhibition of `O=c1[nH]c(-c2ccccc2)cnc1-c1ccccc1` is reported as 50 ± 6% (Adenosine receptor A3 (ADORA3, Homo sapiens, UniProt P0DMS8); [3H]NECA binding; HeLa-A3 membranes; 10 µM).
With `Clc1cccc(OC[C@@H]2CN(CCN3CCc4ccccc43)CCO2)c1` the inhibition was 29% (HTR6; radioligand binding; concentration not given, with: [3H]LSD).
`Cc1cc(C)c2c(N)c(C(=O)Nc3ccon3)sc2n1` has an inhibition of 46 ± 4% (NT5E membrane-bound form; CD73 activity, inhibitor, malachite green phosphate; MDA-MB-231; 100 µM, with: 200 µM AMP).
The inhibition of `c1cncc(OC[C@@H]2CN(CCN3CCc4ccccc43)CCO2)c1` is reported as -10.6% (HTR6; radioligand binding; concentration not given, with: [3H]LSD).
`COc1ccc(S(=O)(=O)N(CC(=O)NO)CC(C)C)cc1` gave an inhibition of 16 ± 0.805% (Stromelysin-2 (Homo sapiens, UniProt P09238); inhibitor; 0.1 µM).
`CNc1cc(Oc2cc(C(=O)Nc3cc(N4CCN(C)CC4)cc(C(F)(F)F)c3)ccc2C)ncn1` has an inhibition of -41.1% (STE20-like serine/threonine-protein kinase (SLK, Homo sapiens, UniProt Q9H2G2); probe labelling, KiNativ; Huh-7, live cells; 1 µM, Lys2 site).
With `COC(=O)CNC(=O)CSc1nc(C)cc(C)c1C#N` the inhibition was 21 ± 6% (NT5E membrane-bound form; CD73 activity, inhibitor, malachite green phosphate; MDA-MB-231; 100 µM, with: 200 µM AMP).
`c1ccc(OC[C@@H]2CN(CCN3CCc4ccccc43)CCO2)cc1` gave an inhibition of 24.2% (HTR6; radioligand binding; concentration not given, with: [3H]LSD).
`Cn1cc(-c2cnc3ccc(NC(=O)Nc4ccc(F)c(Br)c4)cc3n2)cn1` has an inhibition of 11.8% (Mitogen-activated protein kinase kinase kinase 3 (MAP3K3, Homo sapiens, UniProt Q99759); kinase binding, KiNativ profiling, measured: Lys1 peptide; PANC-1 lysate; 10 µM).
The inhibition of `CN(C(=O)n1cnc(-c2ccc[n+]([O-])c2)c1)C1CCCCC1` is reported as 10.5% (Neuropeptide Y receptor type 2 (NPY2R, Homo sapiens, UniProt P49146); 10 µM).
`O=C1c2ccccc2CCN1CCCCN1CCN(c2ccccn2)CC1` gave an inhibition of 3.6% (HTR6; radioligand binding; concentration not given, with: [3H]LSD).
`Cc1cccc(-c2nc(CN(C)C)[nH]c2-c2ccncc2)c1` gave an inhibition of 29% (CSNK1E; kinase activity; 1 µM).
